# Results collected from several papers.
# Every numbered part comes from another study and shows a few of its results, in no order. “And” joins repeats or separate records; there may be more than shown.
# Sequence of UniProt O14920 (whole entry, looked up): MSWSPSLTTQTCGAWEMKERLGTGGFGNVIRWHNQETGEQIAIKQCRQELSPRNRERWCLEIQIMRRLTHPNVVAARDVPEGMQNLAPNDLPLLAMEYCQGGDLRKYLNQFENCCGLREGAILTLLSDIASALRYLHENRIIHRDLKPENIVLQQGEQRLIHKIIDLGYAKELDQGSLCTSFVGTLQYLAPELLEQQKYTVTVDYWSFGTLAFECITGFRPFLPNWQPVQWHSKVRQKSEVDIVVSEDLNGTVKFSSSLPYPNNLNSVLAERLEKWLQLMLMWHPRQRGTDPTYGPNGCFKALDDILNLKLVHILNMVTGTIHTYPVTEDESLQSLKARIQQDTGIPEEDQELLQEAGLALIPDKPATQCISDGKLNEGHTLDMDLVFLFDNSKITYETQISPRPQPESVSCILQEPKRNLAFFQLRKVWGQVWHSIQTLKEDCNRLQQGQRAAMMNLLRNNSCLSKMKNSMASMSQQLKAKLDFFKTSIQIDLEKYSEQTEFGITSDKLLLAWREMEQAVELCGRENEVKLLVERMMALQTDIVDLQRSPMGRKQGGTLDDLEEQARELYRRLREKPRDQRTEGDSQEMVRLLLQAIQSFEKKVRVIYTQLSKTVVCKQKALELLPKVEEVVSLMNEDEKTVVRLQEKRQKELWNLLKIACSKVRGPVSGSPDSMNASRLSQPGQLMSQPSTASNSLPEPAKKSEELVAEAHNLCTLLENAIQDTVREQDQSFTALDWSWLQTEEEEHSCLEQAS
# Sequence of UniProt Q8IYT8 (whole entry, looked up): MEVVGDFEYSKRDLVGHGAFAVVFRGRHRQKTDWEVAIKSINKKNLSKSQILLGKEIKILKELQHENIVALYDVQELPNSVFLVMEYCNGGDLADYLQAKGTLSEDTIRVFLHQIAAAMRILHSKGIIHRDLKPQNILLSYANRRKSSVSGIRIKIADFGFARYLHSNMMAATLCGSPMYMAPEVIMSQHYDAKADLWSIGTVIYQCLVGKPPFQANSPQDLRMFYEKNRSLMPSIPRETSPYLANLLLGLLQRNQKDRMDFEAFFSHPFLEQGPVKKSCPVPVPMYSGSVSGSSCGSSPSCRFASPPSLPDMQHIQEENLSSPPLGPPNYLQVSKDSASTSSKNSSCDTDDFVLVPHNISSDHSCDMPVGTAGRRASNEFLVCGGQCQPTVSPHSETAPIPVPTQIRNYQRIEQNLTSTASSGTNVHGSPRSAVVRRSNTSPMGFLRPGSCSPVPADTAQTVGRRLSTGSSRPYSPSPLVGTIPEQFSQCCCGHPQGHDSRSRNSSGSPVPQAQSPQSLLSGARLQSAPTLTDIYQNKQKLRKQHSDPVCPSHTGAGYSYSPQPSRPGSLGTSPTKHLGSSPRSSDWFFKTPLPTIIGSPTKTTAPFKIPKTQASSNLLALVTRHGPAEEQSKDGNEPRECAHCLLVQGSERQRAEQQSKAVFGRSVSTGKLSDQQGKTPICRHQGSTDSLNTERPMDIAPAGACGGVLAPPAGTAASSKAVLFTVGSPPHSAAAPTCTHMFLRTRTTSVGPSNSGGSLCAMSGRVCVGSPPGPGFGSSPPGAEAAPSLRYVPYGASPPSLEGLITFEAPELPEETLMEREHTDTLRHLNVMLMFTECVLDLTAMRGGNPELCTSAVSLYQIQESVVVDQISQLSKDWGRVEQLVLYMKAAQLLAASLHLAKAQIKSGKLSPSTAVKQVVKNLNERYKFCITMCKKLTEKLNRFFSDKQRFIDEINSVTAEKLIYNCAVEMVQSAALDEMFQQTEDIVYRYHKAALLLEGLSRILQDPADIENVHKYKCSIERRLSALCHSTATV
# Sequence of UniProt Q8TBX8 (whole entry, looked up): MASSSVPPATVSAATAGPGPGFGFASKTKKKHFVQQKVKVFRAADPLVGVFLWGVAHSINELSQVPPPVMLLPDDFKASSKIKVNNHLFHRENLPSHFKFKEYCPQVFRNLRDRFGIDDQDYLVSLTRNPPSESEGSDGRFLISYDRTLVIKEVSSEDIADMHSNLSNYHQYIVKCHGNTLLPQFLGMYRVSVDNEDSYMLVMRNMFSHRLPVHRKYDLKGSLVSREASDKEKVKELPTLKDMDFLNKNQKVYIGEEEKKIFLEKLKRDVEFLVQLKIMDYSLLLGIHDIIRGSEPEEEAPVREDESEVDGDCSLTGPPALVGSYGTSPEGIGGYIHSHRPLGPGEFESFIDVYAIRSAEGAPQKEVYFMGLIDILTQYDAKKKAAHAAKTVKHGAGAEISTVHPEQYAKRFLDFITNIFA
# Sequence of UniProt O96017 (whole entry, looked up): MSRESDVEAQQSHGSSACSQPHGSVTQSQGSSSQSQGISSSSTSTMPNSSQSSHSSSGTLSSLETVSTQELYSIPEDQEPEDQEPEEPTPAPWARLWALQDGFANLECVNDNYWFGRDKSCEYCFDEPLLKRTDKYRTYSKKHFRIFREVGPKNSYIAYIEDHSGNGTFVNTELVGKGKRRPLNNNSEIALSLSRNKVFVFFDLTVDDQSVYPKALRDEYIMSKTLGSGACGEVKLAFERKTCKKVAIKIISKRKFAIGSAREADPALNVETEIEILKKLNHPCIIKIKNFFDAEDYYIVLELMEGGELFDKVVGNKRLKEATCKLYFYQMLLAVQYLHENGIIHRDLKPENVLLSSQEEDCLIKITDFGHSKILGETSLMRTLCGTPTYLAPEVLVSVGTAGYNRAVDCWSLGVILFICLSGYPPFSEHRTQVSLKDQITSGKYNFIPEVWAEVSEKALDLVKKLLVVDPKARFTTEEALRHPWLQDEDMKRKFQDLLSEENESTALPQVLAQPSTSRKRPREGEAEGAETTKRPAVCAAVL
# Sequence of UniProt Q14164 (whole entry, looked up): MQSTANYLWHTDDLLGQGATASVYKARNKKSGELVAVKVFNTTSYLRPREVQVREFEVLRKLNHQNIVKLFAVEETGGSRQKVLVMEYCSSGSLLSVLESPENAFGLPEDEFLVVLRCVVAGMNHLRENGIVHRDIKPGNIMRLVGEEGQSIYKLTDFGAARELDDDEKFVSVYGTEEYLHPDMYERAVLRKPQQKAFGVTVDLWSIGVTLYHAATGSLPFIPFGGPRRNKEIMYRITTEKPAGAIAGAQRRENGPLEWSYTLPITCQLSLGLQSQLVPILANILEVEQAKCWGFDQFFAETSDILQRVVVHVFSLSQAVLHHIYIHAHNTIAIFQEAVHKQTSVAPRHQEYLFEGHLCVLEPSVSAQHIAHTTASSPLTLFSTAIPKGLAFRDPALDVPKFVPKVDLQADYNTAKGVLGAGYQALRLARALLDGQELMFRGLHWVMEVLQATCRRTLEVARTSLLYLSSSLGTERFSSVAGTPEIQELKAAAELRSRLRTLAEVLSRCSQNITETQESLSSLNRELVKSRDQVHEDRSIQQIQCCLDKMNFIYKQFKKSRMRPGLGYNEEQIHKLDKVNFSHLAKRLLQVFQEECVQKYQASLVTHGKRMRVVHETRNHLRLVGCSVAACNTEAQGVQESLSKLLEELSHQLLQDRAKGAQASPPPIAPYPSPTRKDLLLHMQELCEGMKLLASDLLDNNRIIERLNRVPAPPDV
# Sequence of UniProt O60285 (whole entry, looked up): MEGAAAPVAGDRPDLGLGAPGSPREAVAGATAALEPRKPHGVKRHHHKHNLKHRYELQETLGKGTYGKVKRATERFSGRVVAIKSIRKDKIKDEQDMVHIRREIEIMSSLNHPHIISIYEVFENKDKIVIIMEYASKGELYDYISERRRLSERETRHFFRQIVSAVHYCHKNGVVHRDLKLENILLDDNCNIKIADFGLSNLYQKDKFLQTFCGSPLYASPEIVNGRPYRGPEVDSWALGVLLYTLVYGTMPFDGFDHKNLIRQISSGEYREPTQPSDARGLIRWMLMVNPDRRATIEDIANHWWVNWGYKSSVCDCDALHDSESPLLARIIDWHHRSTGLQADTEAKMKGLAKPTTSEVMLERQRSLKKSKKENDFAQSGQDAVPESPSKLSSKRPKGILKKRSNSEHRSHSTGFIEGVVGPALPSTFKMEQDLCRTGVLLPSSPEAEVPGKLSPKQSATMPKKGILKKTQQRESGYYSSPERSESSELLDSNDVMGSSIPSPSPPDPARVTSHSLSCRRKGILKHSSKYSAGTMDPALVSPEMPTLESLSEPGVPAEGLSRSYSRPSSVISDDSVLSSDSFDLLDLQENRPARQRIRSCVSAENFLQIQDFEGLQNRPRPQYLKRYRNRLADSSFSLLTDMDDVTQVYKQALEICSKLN

# Block 1
# Cell line: mouse MPNST tumor cells
# Method: high-content immunofluorescence imaging
# Measured: nuclear SOX9
# Tested at: 10 µM
# Time: 12 h
# Notes: mean of 2 replicates
# Reference: DMSO control
# Reading: higher = more nuclear SOX9
SMILES,nuclear SOX9 intensity
NS(=O)(=O)Cc1noc2ccccc12,106 % of DMSO and 94.3 % of DMSO and 103 % of DMSO
OC[C@H]1O[C@@H](n2cnc3c2N=CNC[C@H]3O)C[C@@H]1O,119 % of DMSO
CN(C)CC[C@@H](c1ccc(Cl)cc1)c1ccccn1,118 % of DMSO
Clc1cccc(Cl)c1CSc1nnc(-c2cnccn2)s1,153 % of DMSO
Cc1ccc(S(=O)(=O)Cc2nc(-c3ccc(C(=O)NCc4cccnc4)cc3)oc2C)cc1,93 % of DMSO
CC(=O)NNC(=O)N1Cc2ccccc2Oc2ccc(Cl)cc21,102 % of DMSO
Cc1ccc(C(C)(O)c2nc3ccccc3s2)c(C)c1 (stereo not drawn),116 % of DMSO
Oc1c(F)cc(-c2cnccc2-c2ccc(N3CCOCC3)cc2)cc1F,92.3 % of DMSO
C[N+]1(CCCCC[N+]2(C)CCCC2)CCCC1,100 % of DMSO and 94.8 % of DMSO
CC(C)NC[C@H](O)COc1cccc2ccccc12,119 % of DMSO
Cn1c(=O)c2[nH]cnc2n(C)c1=O,113 % of DMSO
COc1ccc(C(=O)CC(=O)c2ccc(C(C)(C)C)cc2)cc1,97.3 % of DMSO
CC(C)(C)C(=O)OCOC(=O)[C@@H]1N2C(=O)[C@@H](NC(=O)[C@H](N)c3ccccc3)[C@H]2SC1(C)C,87.3 % of DMSO
O=C(NCc1ccc(C(F)(F)F)cc1)Nc1cccc2cnccc12,116 % of DMSO
COc1cc(/C=C2\CCCN([C@@H](C)c3ccc(F)cc3)C2=O)ccc1-n1cnc(C)c1,121 % of DMSO
CC(C)(Sc1ccc(CCN(CCCCC2CCCCC2)C(=O)NC2CCCCC2)cc1)C(=O)O,105 % of DMSO
Cc1cccc(-c2[nH]c(C(C)(C)C)nc2-c2ccc3nccnc3c2)n1,80.1 % of DMSO

# Block 2
# Target: MAP/microtubule affinity-regulating kinase 3 (MARK3, Homo sapiens, UniProt P27448)
# Sequence of UniProt P27448 (whole entry, looked up): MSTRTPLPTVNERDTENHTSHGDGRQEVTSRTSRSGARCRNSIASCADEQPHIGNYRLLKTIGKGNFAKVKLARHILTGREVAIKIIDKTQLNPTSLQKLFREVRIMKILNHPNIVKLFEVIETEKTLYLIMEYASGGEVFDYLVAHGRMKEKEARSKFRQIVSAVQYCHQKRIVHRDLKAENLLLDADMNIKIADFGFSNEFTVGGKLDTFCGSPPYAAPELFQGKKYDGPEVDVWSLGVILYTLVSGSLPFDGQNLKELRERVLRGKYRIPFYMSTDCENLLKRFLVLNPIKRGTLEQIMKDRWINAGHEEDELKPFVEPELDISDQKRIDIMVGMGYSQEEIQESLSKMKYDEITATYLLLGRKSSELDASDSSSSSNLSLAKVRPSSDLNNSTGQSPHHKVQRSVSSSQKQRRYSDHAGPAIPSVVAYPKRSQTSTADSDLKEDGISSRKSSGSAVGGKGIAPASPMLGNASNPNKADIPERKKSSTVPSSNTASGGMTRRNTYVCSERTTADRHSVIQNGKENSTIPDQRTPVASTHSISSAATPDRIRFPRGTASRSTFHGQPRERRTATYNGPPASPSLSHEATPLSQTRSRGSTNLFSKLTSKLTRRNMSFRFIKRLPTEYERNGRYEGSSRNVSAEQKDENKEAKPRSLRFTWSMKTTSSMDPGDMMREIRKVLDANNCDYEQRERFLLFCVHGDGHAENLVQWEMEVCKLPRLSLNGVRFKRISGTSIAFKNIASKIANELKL
# Effect on: enzyme activity
# Mode: inhibitor
# Tested at: 0.5 µM
# Reference: control
SMILES,remaining activity [%]
CCCCc1c(-c2ccc(O)cc2)[nH]c2nccnc12,88.2
COc1cc2c(Nc3ccc(Br)cc3F)ncnc2cc1OCC1CCN(C)CC1,106
NC(=O)c1cccc(-c2cc(Nc3ccc(OC(F)(F)F)cc3)ncn2)c1,100
O=C(c1ccccc1)c1ccc(N2CCOCC2)cc1O,105
CNc1cc2c(Nc3cccc(Br)c3)ncnc2cn1,82.2
CC(C)n1cnc2c(Nc3cccc(Cl)c3)nc(NCCO)nc21,92.3
Clc1ccc(Nc2nnc(Cc3ccncc3)c3ccccc23)cc1,102
CCN(CC)CCCCN1c2ccccc2Oc2ccc(Cl)cc21,102
C[C@@H](N)[C@H]1CC[C@H](C(=O)Nc2ccncc2)CC1,97.4
O=C(O)/C=C/c1cc(Br)c(Br)c(Br)c1Br,104
CC(C)(C)c1nc2c3cc[nH]c(=O)c3c3cc(F)ccc3c2[nH]1,55.9
O=C1c2ccccc2-c2nc3nnnn3nc21,78.1
NC(=O)c1ccc(-c2nc(-c3ccc4c(c3)OCCO4)c(-c3ccccn3)[nH]2)cc1,105
N#C/C(=C(/N)SC1C=CC=CC1)c1cccc(C(O)c2ccncc2)c1 (stereo not drawn),93.9
Nc1nc(Nc2ccc(S(N)(=O)=O)cc2)nn1C(=S)Nc1c(F)cccc1F,0.29
CC(C)N(CCC(=O)c1ccc2ccccc2c1)Cc1ccccc1,101
c1cc(-c2cnn3cc(-c4ccc(OCCN5CCCCC5)cc4)cnc23)ccn1,58.4
O=c1c(-c2ccc(F)cc2)c(-c2ccncc2)[nH]n1-c1ccc(Cl)cc1,87.2
COc1cc2c(N3CCN(C(=O)Nc4ccc(OC(C)C)cc4)CC3)ncnc2cc1OCCCN1CCCCC1,103
FC(F)(F)c1ccc(/C=C/c2nc(COc3ccc(CCCCn4ccnn4)cc3)co2)cc1,96.6
O=C1NC(=O)/C(=C/c2ccc3c(c2)OC(F)(F)O3)S1,92.3

# Block 3
# Compound: O=S(=O)(NC1CCC(c2cc(F)ccc2F)(S(=O)(=O)c2ccc(Cl)cc2)CC1)C(F)(F)F (stereo not drawn)
# Method: competition with immobilised ligand
# Tested at: 1 µM
target,effect on,remaining binding [%]
"Phosphatidylinositol 3-kinase C2 domain-containing subunit gamma (PIK3C2G, Homo sapiens, UniProt O75747)",cell-free assay,100
"Cyclin-dependent kinase-like 3 (CDKL3, Homo sapiens, UniProt Q8IVW4)",cell-free assay,100
"Dual specificity testis-specific protein kinase 1 (TESK1, Homo sapiens, UniProt Q15569)",cell-free assay,100
"Inhibitor of nuclear factor kappa-B kinase subunit epsilon (IKBKE, Homo sapiens, UniProt Q14164)",binding,0
"Dual specificity tyrosine-phosphorylation-regulated kinase 2 (DYRK2, Homo sapiens, UniProt Q92630)",cell-free assay,100
"Serine/threonine-protein kinase Chk2 (CHEK2, Homo sapiens, UniProt O96017)",cell-free assay,100
"Ribosomal protein S6 kinase alpha-6, N-terminal kinase domain (RPS6KA6, Homo sapiens, UniProt Q9UK32)",cell-free assay,83
"Mast/stem cell growth factor receptor Kit (KIT, Homo sapiens, UniProt P10721, V559D)",cell-free assay,95
"Phosphatidylinositol 5-phosphate 4-kinase type-2 gamma (PIP4K2C, Homo sapiens, UniProt Q8TBX8)",cell-free assay,100
"Inhibitor of nuclear factor kappa-B kinase subunit beta (IKBKB, Homo sapiens, UniProt O14920)",cell-free assay,93
"NUAK family SNF1-like kinase 1 (NUAK1, Homo sapiens, UniProt O60285)",cell-free assay,83
"Serine/threonine-protein kinase MAK (MAK, Homo sapiens, UniProt P20794)",cell-free assay,100
"Atypical kinase COQ8A, mitochondrial (COQ8A, Homo sapiens, UniProt Q8NI60)",cell-free assay,99
"Ephrin type-A receptor 4 (EPHA4, Homo sapiens, UniProt P54764)",cell-free assay,95
"Transient receptor potential cation channel subfamily M member 6 (TRPM6, Homo sapiens, UniProt Q9BX84)",cell-free assay,95
"Muscle, skeletal receptor tyrosine-protein kinase (MUSK, Homo sapiens, UniProt O15146)",cell-free assay,100
"Serine/threonine-protein kinase ULK1 (ULK1, Homo sapiens, UniProt O75385)",cell-free assay,84
"Protein kinase C theta type (PRKCQ, Homo sapiens, UniProt Q04759)",cell-free assay,100
"Serine/threonine-protein kinase ULK2 (ULK2, Homo sapiens, UniProt Q8IYT8)",cell-free assay,100

# Block 4
# SMILES: CC(C)n1cnc(-c2ccc(F)cc2)c1-c1ncc(C(=O)Nc2ccc(N3CCN(C)CC3)cc2)[nH]1
method,host,dose,notes,patients with pulmonary embolism [%]
phase 2a trial,idiopathic pulmonary fibrosis patients,30 mg once daily,grade 4 emergent event,0
phase 2a trial,idiopathic pulmonary fibrosis patients,all arms,grade 2 emergent event,0
phase 2a trial,idiopathic pulmonary fibrosis patients,all arms,grade 3 emergent event,0
phase 2a trial,idiopathic pulmonary fibrosis patients,60 mg once daily,grade 4 emergent event,0
phase 2a trial,idiopathic pulmonary fibrosis patients,30 mg once daily,grade 5 emergent event,0
phase 2a trial,idiopathic pulmonary fibrosis patients,60 mg once daily,grade 2 emergent event,0
phase 2a trial,idiopathic pulmonary fibrosis patients,60 mg once daily,grade 3 emergent event,0
phase 2a trial,idiopathic pulmonary fibrosis patients,all arms,grade 5 emergent event,0
,"human, idiopathic pulmonary fibrosis",30 mg once daily,"trial, treatment-emergent",0

# Repeated from above (block 3):
target,effect on,remaining binding [%]
"Inhibitor of nuclear factor kappa-B kinase subunit beta (IKBKB, Homo sapiens, UniProt O14920)",cell-free assay,93
"NUAK family SNF1-like kinase 1 (NUAK1, Homo sapiens, UniProt O60285)",cell-free assay,83
"Serine/threonine-protein kinase MAK (MAK, Homo sapiens, UniProt P20794)",cell-free assay,100
"Atypical kinase COQ8A, mitochondrial (COQ8A, Homo sapiens, UniProt Q8NI60)",cell-free assay,99
"Ephrin type-A receptor 4 (EPHA4, Homo sapiens, UniProt P54764)",cell-free assay,95
"Transient receptor potential cation channel subfamily M member 6 (TRPM6, Homo sapiens, UniProt Q9BX84)",cell-free assay,95
"Muscle, skeletal receptor tyrosine-protein kinase (MUSK, Homo sapiens, UniProt O15146)",cell-free assay,100
"Serine/threonine-protein kinase ULK1 (ULK1, Homo sapiens, UniProt O75385)",cell-free assay,84
